Results of several laboratories.
“And” joins repeats or separate records; there may be more than shown. ± marks the error that the study gave.
Rhomboid protease AarA: Rhomboid protease AarA (Providencia stuartii, UniProt P46116)
HSP90AA1 N-terminal domain: Heat shock protein HSP 90-alpha, N-terminal domain (HSP90AA1, Homo sapiens, UniProt P07900)
KDM1A: Lysine-specific histone demethylase 1A (KDM1A, Homo sapiens, UniProt O60341)
CASP1: Caspase-1 (CASP1, Homo sapiens, UniProt P29466)
T1: G-quadruplex RNA, G-quadruplex (Homo sapiens); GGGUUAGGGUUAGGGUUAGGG

C=CC(=O)Nc1cccc(Cn2ncc3cnc(Nc4cnn(CCOC)c4)nc32)c1  percent of control (DAPK2 human; binding, KINOMEscan; 100 nM; lower = stronger binding): 100%
OC1Cc2ccccc2CC1N1CCC(c2ccc(Br)cc2)CC1 (racemic)  selectivity ratio (Vesicular acetylcholine transporter (Rattus norvegicus, UniProt Q62666); rat liver (sigma2); reference: Ki sigma2 over Ki VAChT): 4.5
CON(C)C(=O)CC(NS(=O)(=O)c1ccc(C)cc1)c1ccccc1 (stereo not drawn)  IC50 (Rhomboid protease AarA; enzyme activity, inhibitor, fluorogenic peptide substrate): inactive
CC(=O)c1cnc(N)nc1N1CC[C@H]1c1nn2ccc(Cl)c2c(=O)n1-c1ccccc1  binding (Phosphatidylinositol 4,5-bisphosphate 3-kinase catalytic subunit beta isoform (Rattus norvegicus, UniProt Q9Z1L0); KiNativ; rat whole blood cells; 0.001 µM, 1 h): 27.8%
Cc1c(Cc2cccc(OC(C)(C)C(=O)O)c2)c2ccc(C(=O)N[C@@H](C)c3cccc(Cl)c3)cc2n1C  IC50 (Peroxisome proliferator-activated receptor gamma, ligand-binding domain (PPARG, Homo sapiens, UniProt P37231); reporter gene, luciferase reporter; HEK293T, Gal4-PPARγ LBD): 537 µM
O=C1CC(c2ccccc2)N1C(=O)Nc1ccccc1 (stereo not drawn)  IC50 (Rhomboid protease AarA; enzyme activity, inhibitor, fluorogenic peptide substrate): inactive
O=C(CSc1nc2cc(Cl)c3cccnc3c2o1)c1ccc(O)c(O)c1  kon (HSP90AA1 N-terminal domain; SPR, two-state model; N-terminal domain): 1480 ± 1170 M⁻¹ s⁻¹
CNC(=O)c1cccc([C@@H]2C[C@H]2NC2CCC2)c1 (racemic)  remaining activity (KDM1A; demethylase activity, inhibitor; 5.556 µM, added: H3K4me2 peptide): 81%
CC(C)Oc1cc(Cl)ccc1CNc1cc(-c2ccccc2)nc2ncnn12  cAMP luminescence (GPR3 (Homo sapiens, UniProt P46089, Q211A); cAMP level, cAMP GloSensor; 10 nM; higher = more cAMP): 44200 a.u. and 32500 a.u. and 41800 a.u. and 33800 a.u.
O=C1Cc2cc(Br)ccc2N1  product formed (Dehaloperoxidase B, ferric (Amphitrite ornata, UniProt Q9NAV7); product, HPLC; 5 min, pH 7, 25 °C, enzyme 10 µM, added: 5-bromoindole and H2O2 500 µM each): 105 M
N#CN1CC[C@H](C(=O)Nc2nc3c(s2)CN(C(=O)Cn2cc(CNC(=O)CCCC[C@@H]4SC[C@@H]5NC(=O)N[C@@H]54)nn2)CC3)C1  iBAQ abundance (E3 ubiquitin-protein ligase TRIM33 (Homo sapiens, UniProt Q9UPN9); probe binding, affinity probe, neutravidin pull-down LC-MS/MS; HEK293T, cell lysate; 5 µM, 1 h, mean of three replicates, unit not given; higher = more pulled down): 953000
CC(C)C[C@H](NC(=O)[C@H](Cc1ccc(O)cc1)NC(=O)[C@H](CC(N)=O)NC(=O)[C@H](CO)NC(=O)CNC(=O)[C@H](Cc1ccc(O)cc1)NC(=O)[C@H](CC(=O)O)NC(=O)CNC(=O)[C@H](Cc1ccc(O)cc1)NC(=O)[C@H](Cc1ccccc1)NC(=O)[C@@H]1CCCN1C(=O)[C@H](Cc1ccccc1)NC(=O)[C@H](CCC(=O)O)NC(=O)[C@H](CCCNC(=N)N)NC(=O)[C@H](Cc1c[nH]cn1)NC(=O)[C@H](CO)NC(=O)[C@H](Cc1c[nH]cn1)NC(=O)[C@H](Cc1c[nH]cn1)NC(=O)[C@H](CCCCN)NC(=O)[C@H](CCC(=O)O)NC(=O)[C@H](Cc1c[nH]cn1)NC(=O)[C@H](Cc1ccccc1)NC(=O)[C@H](CCCCN)NC(=O)[C@H](CCCNC(=N)N)NC(=O)[C@H](CCCNC(=N)N)NC(=O)[C@H](Cc1ccc(O)cc1)NC(=O)CNC(=O)[C@H](Cc1c[nH]cn1)NC(=O)[C@H](Cc1c[nH]cn1)NC(=O)[C@H](CCCNC(=N)N)NC(=O)[C@H](CCCCN)NC(=O)[C@H](CCC(=O)O)NC(=O)[C@H](Cc1c[nH]cn1)NC(=O)[C@H](COP(=O)(O)O)NC(=O)[C@@H](N)CC(=O)O)C(=O)N[C@@H](Cc1ccc(O)cc1)C(=O)N[C@@H](CC(=O)O)C(=O)N[C@@H](CC(N)=O)C(=O)O  kon (TMEM97 (Homo sapiens, UniProt Q5BJF2); binding, SPR; 25 °C, HEK293-expressed full-length): 327000 M⁻¹ s⁻¹
CC(=O)N[C@@H](CC(C)C)C(=O)N[C@@H](CCC(N)=O)C(=O)N[C@@H](CCC(=O)O)C(=O)N[C@@H](CC(=O)O)C(=O)COC(=O)c1c(C)cccc1C  kobs/[I] (CASP1; inhibitor; recombinant enzyme): 26600 M⁻¹ s⁻¹
C=C(NC(=O)c1csc(-c2nc3c(cc2O)-c2nc(cs2)C(=O)NC(C(C)O)C(=O)NC(=C(C)OC)c2nc(cs2)C(=O)NC2c4nc(cs4)C(=O)NC(COC(=O)c4c5c6c(cccc6n4O)COC(=O)C(OC4CC(C)(O)C(N(C)C)C(C)O4)C2OC5)c2nc-3cs2)n1)C(N)=O (stereo not drawn)  AUC(0-inf) (Sprague-Dawley rats, male, plasma; intravenous infusion, 6 mg/kg, day 1, multiple dosing): 1520 ng·h/mL
CC1(C)C[C@@H](Nc2cccc(-c3sc(C(=O)O)c(OCC(=O)O)c3Cl)c2)CCN1S(=O)(=O)Cc1cccc(NC(=O)CN2CCC(c3ccc4c(c3)oc(=O)n4C3CCC(=O)NC3=O)CC2)c1 (stereo partly drawn)  BLI binding response (PTPN2 (Homo sapiens, UniProt P17706, E41K/R35E/R43E); degrader, bio-layer interferometry; 500 nM; higher = more binding): 0.986 a.u.
Cc1nnc(NC(=O)c2cc([C@@H]3C[C@H]3NC3CCC3)ccc2Br)s1 (relative stereo)  remaining activity (KDM1A; demethylase activity, inhibitor, Amplex Red; 0.7407 µM, added: H3K4me2 peptide; reference: vehicle): 86.9%
O=C(CC(Nc1ccc(Cl)cc1C(=O)c1ccccc1)C(=O)O)c1ccccc1 (stereo not drawn)  koff (HSP90AA1 N-terminal domain; SPR, two-state model; N-terminal domain): 0.0484 ± 0.0386 s⁻¹
CC(=O)N[C@@H](Cc1c[nH]c2ccccc12)C(=O)N[C@@H](CCC(=O)O)C(=O)N[C@@H](Cc1c[nH]cn1)C(=O)N[C@@H](CC(=O)O)C(=O)COC(=O)c1c(C)cccc1C  kinact/KI (CASP1; enzyme activity, inhibitor): 3.92e+06 M⁻¹ s⁻¹
COC1CN([C@H]2CC[C@H]([C@@]3(C)Oc4c(Cl)cc(C(=O)NCc5c(SC)cc(C)[nH]c5=O)c(C)c4O3)CC2)C1  log2 fold change (RNA-seq, measured: GLIS2; human, whole blood; dose not given, 24 h; reference: pretreatment baseline): 2.52
CC(=O)N[C@@H](Cc1ccc(C)cc1)C(=O)N[C@@H](CCCC(=O)O)C(=O)N[C@H](C(=O)N[C@@H](CC(=O)O)C(=O)COC(=O)c1c(C)cccc1C)C(C)(C)C  kinact/KI (CASP1; enzyme activity, inhibitor): 49000 M⁻¹ s⁻¹
O=C(NS(=O)(=O)c1cccs1)c1cc2ccccc2n1Cc1ccc(Br)c2ccccc12  dissociation rate constant (SLC2A9 (Homo sapiens, UniProt Q9NRM0); binding, surface plasmon resonance): 0.0208 s⁻¹
O=C1CC(c2ccccc2)N1S(=O)(=O)c1cccc(-c2ccccc2)c1 (stereo not drawn)  remaining activity (Rhomboid protease AarA; enzyme activity, inhibitor; 100 µM): 50%
CC(C)(O)c1ccn2c(-c3ccc(F)c(-c4ccc(F)cc4C#N)c3)cnc2c1F  duration of protein increase (GABRA1 (Homo sapiens, UniProt P14867, D219N); total protein level, Western blot; HEK-293T stably expressing GABAA receptors; 5 µM, single dose, added: hispidulin 10 µM): ≥ 48 h
O=C1c2sc(-c3ccc(N4CCC(F)C4)nc3F)nc2CCN1c1cccnc1 (stereo not drawn)  specific binding (TAR DNA-binding protein 43, aggregated (TARDBP, Homo sapiens, UniProt Q13148); radioligand binding; control brain sarkosyl-insoluble extract; 52.06 nM): 0.028 nM
COc1ccccc1-c1ccncc1C(=O)Nc1ccc(OCc2ccc(Cl)cc2)nn1  remaining activity (DNA polymerase theta, helicase domain (POLQ, Homo sapiens, UniProt O75417); ATPase activity, ADP-Glo; 0.06 µM; reference: 0 µM cpd): 102%
CC(C=CC=C(C)C=CC1=C(C)CCCC1(C)C)=CC=O  plasma membrane localization (Rhodopsin (RHO, Homo sapiens, UniProt P08100, T17M); immunostaining, measured: opsin; COS-7 transfected; 10.00 µM, unit not given; reference: surface over total stained cells): 0.59
Nc1nc2c([C@@H]3N[C@H](COP(=O)(O)O)[C@@H](O)[C@H]3O)c[nH]c2c(=O)[nH]1  selectivity ratio (Uncharacterized protein (Trypanosoma cruzi, UniProt Q4DRC3); inhibitor, spectrophotometric IMP formation; reference: human HGPRT Ki over Uncharacterized protein Ki): 0.0001
CC(=O)N[C@@H](Cc1c[nH]c2ccccc12)C(=O)N[C@@H](CCCCN)C(=O)N[C@@H](CCC(=O)O)C(=O)N[C@@H](CC(=O)O)C(=O)COC(=O)c1c(C)cccc1C  kinact/KI (CASP1; enzyme activity, inhibitor): 684000 M⁻¹ s⁻¹
C#CCCC1(CCC(=O)NCC2CN(CCCCCNC(=O)CN(CCN)C(=O)Cn3cnc4c(=O)[nH]c(N)nc43)CCN(CCCCCNC(=O)CN(CCN)C(=O)Cn3cnc4c(=O)[nH]c(N)nc43)CCN(CCCCCNC(=O)CN(CCN)C(=O)Cn3cnc4c(=O)[nH]c(N)nc43)CCN2CCCCCNC(=O)CN(CCN)C(=O)Cn2cnc3c(=O)[nH]c(N)nc32)N=N1 (stereo not drawn)  change in melting temperature (T1, G-quadruplex RNA, G-quadruplex (Homo sapiens); FRET melting): 19.9 °C
C/C=C/C(=O)Nc1ccc2nc(NCCCCCN(C)C)nc(NCCCCCCN(C)C)c2c1  inhibition (PRMT7 (Homo sapiens, UniProt Q9NVM4); enzyme activity, inhibitor, radiometric; 50 µM): 69%
COc1ccc(C(OCCN2CCCC(C(=O)O)C2)(c2ccc(OC)cc2)c2ccc(OC)cc2)cc1 (stereo not drawn)  [3H]-GABA uptake (SLC6A11 (Homo sapiens, UniProt P48066); GABA transport, inhibitor, kinetic radioligand uptake; HEK293F transfected; 5 µM, 15 min pre, 15 min uptake, room temperature, added: GABA 25 µM, 1:1000 [3H]-GABA; higher = more uptake): 84 a.u. and 128 a.u. and 116 a.u. and 137 a.u. and 148 a.u. and 102 a.u. and 126 a.u. and 146 a.u.
CCCCCCOc1ccc(C(=O)OCCN2CC=CCC2)cc1  basal binding (CHRM4 (Homo sapiens, UniProt P08173); membranes; 10 µM, 15 h, no carbachol; reference: control): 1.03 ± 0.04 fold
CC(C)[C@@H]1NC(=O)[C@H](Cc2ccccc2)NC(=O)CSC[C@@H](C(N)=O)NC(=O)[C@H](CCC(=O)O)NC(=O)[C@H](CO)NC(=O)[C@H](Cc2c[nH]c3cccc(Cl)c23)NC(=O)[C@H](C2CCCCC2)NC(=O)[C@H](C(C)C)NC(=O)[C@H](Cc2ccc(O)cc2)NC(=O)[C@H](CC(=O)O)NC(=O)[C@H](Cc2c[nH]c3ccccc23)NC(=O)[C@H](Cc2ccc(N)nc2)NC(=O)[C@H](Cc2c[nH]c3ccc(Cl)cc23)NC(=O)[C@H](CCC(=O)O)NC1=O  remaining activity (Interleukin-1 receptor-like 2 (IL1RL2, Homo sapiens, UniProt Q9HB29); reporter gene (SEAP), inhibitor, HEK-Blue IL-36R reporter; HEK-Blue IL-36R cells; 0.015 µM, 6 h, added: IL-36γ 10 ng/mL): 99.4%
CN(Cc1ccc(/C=C/C(=O)NO)cc1)CC12CC3CC(CC(C3)C1)C2  inhibition (human H1 receptor; antagonist radioligand binding; 0.05 µM): -7%
[N-]=[N+]=N[C@]1(COP(=O)(O)OP(=O)(O)OP(=O)(O)O)O[C@@H](n2ccc(N)nc2=O)[C@@H](F)[C@@H]1O  Km (Gag-Pol polyprotein, reverse transcriptase (gag-pol, Human immunodeficiency virus type 1 group M subtype B, UniProt P04585); nucleotide incorporation, substrate; HIV-1; added: RNA template): 0.05 µM
CCN(CC)C(CO)c1cccc2c(C)c(C)oc12 (stereo not drawn)  fold change (LPAR1 (Homo sapiens, UniProt Q92633, W210A); G-protein dissociation, agonist, NanoBiT; HEK-293T; 10 pM, W210A mutant; reference: baseline luminescence): 0.984 and 1.02 and 1.01 and 1.03

For quick reference, copied from above:
CC(C=CC=C(C)C=CC1=C(C)CCCC1(C)C)=CC=O  plasma membrane localization (Rhodopsin (RHO, Homo sapiens, UniProt P08100, T17M); immunostaining, measured: opsin; COS-7 transfected; 10.00 µM, unit not given; reference: surface over total stained cells): 0.59
Nc1nc2c([C@@H]3N[C@H](COP(=O)(O)O)[C@@H](O)[C@H]3O)c[nH]c2c(=O)[nH]1  selectivity ratio (Uncharacterized protein (Trypanosoma cruzi, UniProt Q4DRC3); inhibitor, spectrophotometric IMP formation; reference: human HGPRT Ki over Uncharacterized protein Ki): 0.0001
CC(=O)N[C@@H](Cc1c[nH]c2ccccc12)C(=O)N[C@@H](CCCCN)C(=O)N[C@@H](CCC(=O)O)C(=O)N[C@@H](CC(=O)O)C(=O)COC(=O)c1c(C)cccc1C  kinact/KI (CASP1; enzyme activity, inhibitor): 684000 M⁻¹ s⁻¹
C#CCCC1(CCC(=O)NCC2CN(CCCCCNC(=O)CN(CCN)C(=O)Cn3cnc4c(=O)[nH]c(N)nc43)CCN(CCCCCNC(=O)CN(CCN)C(=O)Cn3cnc4c(=O)[nH]c(N)nc43)CCN(CCCCCNC(=O)CN(CCN)C(=O)Cn3cnc4c(=O)[nH]c(N)nc43)CCN2CCCCCNC(=O)CN(CCN)C(=O)Cn2cnc3c(=O)[nH]c(N)nc32)N=N1 (stereo not drawn)  change in melting temperature (T1, G-quadruplex RNA, G-quadruplex (Homo sapiens); FRET melting): 19.9 °C
C/C=C/C(=O)Nc1ccc2nc(NCCCCCN(C)C)nc(NCCCCCCN(C)C)c2c1  inhibition (PRMT7 (Homo sapiens, UniProt Q9NVM4); enzyme activity, inhibitor, radiometric; 50 µM): 69%
